# Experimental data collected from several papers.
# Each numbered part is a random draw from the data of one study; scales do not carry over between parts.

# Study 1
# Target: Transcriptional repressor CTCF (CTCF, Homo sapiens, UniProt P49711, residues 1-727, full length assumed)
# Sequence of UniProt P49711 (whole entry, looked up): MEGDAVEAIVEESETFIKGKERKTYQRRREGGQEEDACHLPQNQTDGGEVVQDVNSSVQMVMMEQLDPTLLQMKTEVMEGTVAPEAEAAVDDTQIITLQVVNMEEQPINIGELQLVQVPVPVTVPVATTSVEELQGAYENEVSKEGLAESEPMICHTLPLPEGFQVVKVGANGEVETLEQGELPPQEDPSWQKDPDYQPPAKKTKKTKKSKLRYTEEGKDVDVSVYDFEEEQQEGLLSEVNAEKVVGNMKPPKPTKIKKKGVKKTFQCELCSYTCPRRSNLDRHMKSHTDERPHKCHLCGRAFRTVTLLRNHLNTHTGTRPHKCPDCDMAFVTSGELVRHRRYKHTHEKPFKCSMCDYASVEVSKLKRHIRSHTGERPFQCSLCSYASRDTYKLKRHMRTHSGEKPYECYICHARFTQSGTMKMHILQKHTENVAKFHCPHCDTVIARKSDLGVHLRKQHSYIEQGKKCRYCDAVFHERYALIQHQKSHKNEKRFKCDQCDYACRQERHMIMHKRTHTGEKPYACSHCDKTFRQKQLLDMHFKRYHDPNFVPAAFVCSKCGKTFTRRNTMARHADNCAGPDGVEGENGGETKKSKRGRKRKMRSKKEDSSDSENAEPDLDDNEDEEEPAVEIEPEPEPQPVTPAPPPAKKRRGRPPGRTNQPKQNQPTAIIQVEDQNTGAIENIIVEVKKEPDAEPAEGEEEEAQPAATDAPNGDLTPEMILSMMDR
# Method: protein-binding microarray
# Molecule type: double-stranded DNA, one strand shown
# Medium: in vitro
# Concentration: not given
# Notes: k-mer, scored over probes, only values ≥0.25
# Reading: higher = stronger binding
Strand,E-score
ATAAGTAT,0.294
AATAATAA,0.33
CGCGCAGA,0.267
AGTAACAG,0.251
AAGGGGGC,0.31
ACCATATA,0.321
AATACAAA,0.397

# Study 2
# Target: Sal-like protein 4, full length isoform B (SALL4, Homo sapiens, UniProt Q9UJQ4-2, residues 1-616)
# Method: universal PBM
# Molecule type: double-stranded DNA, one strand shown
# Medium: in vitro
# Concentration: not given
# Notes: 8-mer, flanks averaged, mean of replicates
# Reading: higher = stronger binding
Strand,E-score
GCATACCC,-0.17
ACGGCAGG,-0.375
GGTTAAGA,0.0289
GAGTGGCA,-0.185
TAGACGCA,0.127
CTCGTAGA,-0.0726
AACAAGAG,-0.0877
AAATGCCA,0.0618
AACTCGTG,-0.00326
ATCTCCAC,-0.0651
GCGTGCCC,-0.353
CAAGATCA,-0.0358
AAGCGTCT,-0.0716

# Study 3
# Target: Interferon regulatory factor 5, full length, phosphomimetic (IRF5, Homo sapiens, UniProt Q13568-2, residues 1-514, S451D/S453D/S456D/S462D)
# Method: protein-binding microarray
# Molecule type: double-stranded DNA, one strand shown
# Medium: in vitro
# Concentration: 940 nM top
# Notes: 60-bp whole probe
# With: salmon DNA 0.4 mg/ml
# Baseline: random background probes
# Reading: higher = stronger binding
# Shared flanks, not repeated: GCCTAGCAC … GTCTTGATTCGCTTGACGCTGCTG
Strand,fitted relative affinity [z-score]
TTAGAACTGAGTATCGATCAGTGCTAG,3.87
CAAGTGATGTAGCTGGGAGCGTGCTAG,-0.403
TTTGCTTTCTTTTATGCTCTGTGCTAG,1.28
CCATCTCTGCTCCTTCTGACAGTGCTA,0.836
TACGGTTTCGACTTTCGGGACGTGCTA,6.96
GACGGACTGGACTCTCGGGACGTGCTA,-0.00481
TTAGGTTTCGGTTTCGGTTCGTGCTAG,17.2

# Mixed results
Substance,target,assay,system,setting,how to read,endpoint,value
"PhoQ, residues 284 288 289 292 302 303 AEGLLW","PhoP, residues 12 14 15 18 19 NMSSL (Escherichia coli, UniProt P23836)","Sort-seq, measured: YFP reporter",E. coli,"PhoQ-PhoP variant library, with: 10 µM Mg2+","baseline: high Mg2+ state, higher = stronger signaling",fold induction,9.42

# Some of these lines once more (study 2):
Strand,E-score
TAGACGCA,0.127
CTCGTAGA,-0.0726
